Experimental data of several laboratories.
Parts stem from different laboratories: compare values within a part only. Several values in a cell are separate wells, animals, samples, runs or records.
UniProt Q9H2K8, sequence (whole entry, looked up): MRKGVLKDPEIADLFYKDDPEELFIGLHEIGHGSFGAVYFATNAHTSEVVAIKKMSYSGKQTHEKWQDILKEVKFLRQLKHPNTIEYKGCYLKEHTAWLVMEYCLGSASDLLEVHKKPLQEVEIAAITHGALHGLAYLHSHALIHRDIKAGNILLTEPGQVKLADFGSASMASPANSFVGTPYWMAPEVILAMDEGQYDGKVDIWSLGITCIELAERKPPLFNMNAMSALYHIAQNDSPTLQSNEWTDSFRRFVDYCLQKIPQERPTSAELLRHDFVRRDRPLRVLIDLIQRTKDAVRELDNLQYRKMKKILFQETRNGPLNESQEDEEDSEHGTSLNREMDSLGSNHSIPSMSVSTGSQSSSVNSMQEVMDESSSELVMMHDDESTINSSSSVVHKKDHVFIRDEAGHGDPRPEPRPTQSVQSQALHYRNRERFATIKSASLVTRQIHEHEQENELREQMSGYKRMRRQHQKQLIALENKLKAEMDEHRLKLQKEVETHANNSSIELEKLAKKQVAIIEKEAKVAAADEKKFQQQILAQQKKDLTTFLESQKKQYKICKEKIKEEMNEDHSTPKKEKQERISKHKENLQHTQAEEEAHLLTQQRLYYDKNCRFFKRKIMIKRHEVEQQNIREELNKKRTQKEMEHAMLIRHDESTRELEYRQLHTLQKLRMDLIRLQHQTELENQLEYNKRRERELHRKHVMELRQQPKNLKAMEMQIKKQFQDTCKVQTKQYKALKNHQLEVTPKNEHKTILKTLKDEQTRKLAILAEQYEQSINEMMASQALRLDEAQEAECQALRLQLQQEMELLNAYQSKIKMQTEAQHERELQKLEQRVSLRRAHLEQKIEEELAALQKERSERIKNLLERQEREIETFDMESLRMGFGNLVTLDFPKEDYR
UniProt O00506, sequence (whole entry, looked up): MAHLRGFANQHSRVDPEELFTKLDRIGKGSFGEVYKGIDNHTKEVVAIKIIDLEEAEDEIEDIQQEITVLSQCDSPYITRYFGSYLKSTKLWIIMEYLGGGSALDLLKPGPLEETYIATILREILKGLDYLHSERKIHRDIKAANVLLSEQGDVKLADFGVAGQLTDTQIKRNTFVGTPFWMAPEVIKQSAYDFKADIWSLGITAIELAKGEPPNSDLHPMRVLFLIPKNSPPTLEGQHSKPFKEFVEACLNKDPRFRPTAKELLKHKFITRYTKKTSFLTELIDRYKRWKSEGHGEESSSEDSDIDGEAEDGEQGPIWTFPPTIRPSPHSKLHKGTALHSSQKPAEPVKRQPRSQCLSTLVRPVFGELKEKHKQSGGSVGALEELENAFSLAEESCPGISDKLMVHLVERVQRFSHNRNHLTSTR
UniProt Q9UQM7, sequence (whole entry, looked up): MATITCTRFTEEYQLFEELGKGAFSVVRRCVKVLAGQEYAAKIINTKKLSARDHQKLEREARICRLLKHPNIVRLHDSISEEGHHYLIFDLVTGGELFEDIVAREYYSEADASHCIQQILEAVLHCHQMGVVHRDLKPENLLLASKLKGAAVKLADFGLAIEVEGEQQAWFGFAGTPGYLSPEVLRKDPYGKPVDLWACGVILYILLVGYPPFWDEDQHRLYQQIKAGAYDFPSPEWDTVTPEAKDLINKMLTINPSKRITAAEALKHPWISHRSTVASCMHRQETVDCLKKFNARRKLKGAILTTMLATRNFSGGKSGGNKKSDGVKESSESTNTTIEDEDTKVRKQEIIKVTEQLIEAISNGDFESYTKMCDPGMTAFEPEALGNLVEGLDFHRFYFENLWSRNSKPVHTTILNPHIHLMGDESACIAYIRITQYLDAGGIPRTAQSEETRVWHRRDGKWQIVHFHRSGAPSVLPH
UniProt P16591, sequence (whole entry, looked up): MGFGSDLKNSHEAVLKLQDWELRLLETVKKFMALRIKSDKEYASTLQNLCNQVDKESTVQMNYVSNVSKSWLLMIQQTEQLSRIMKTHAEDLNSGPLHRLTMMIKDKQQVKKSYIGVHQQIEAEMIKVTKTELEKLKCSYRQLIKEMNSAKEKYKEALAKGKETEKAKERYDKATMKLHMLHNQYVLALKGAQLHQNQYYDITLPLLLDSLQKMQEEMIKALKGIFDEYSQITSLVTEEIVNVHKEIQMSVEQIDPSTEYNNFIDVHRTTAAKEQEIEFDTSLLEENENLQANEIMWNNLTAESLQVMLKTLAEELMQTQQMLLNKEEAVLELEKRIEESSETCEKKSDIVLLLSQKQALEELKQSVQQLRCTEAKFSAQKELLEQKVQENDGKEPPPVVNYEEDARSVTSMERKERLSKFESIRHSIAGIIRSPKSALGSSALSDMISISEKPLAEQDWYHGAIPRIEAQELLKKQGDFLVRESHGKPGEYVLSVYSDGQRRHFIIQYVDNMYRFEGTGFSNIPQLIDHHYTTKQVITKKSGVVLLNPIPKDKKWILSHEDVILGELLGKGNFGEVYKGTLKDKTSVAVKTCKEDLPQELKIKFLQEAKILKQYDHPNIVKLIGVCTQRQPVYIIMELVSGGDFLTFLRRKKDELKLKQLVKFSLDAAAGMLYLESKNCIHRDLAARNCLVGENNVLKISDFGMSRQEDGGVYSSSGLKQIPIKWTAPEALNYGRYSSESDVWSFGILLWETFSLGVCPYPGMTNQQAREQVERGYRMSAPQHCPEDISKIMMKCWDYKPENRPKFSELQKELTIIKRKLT
UniProt Q9UBE8, sequence (whole entry, looked up): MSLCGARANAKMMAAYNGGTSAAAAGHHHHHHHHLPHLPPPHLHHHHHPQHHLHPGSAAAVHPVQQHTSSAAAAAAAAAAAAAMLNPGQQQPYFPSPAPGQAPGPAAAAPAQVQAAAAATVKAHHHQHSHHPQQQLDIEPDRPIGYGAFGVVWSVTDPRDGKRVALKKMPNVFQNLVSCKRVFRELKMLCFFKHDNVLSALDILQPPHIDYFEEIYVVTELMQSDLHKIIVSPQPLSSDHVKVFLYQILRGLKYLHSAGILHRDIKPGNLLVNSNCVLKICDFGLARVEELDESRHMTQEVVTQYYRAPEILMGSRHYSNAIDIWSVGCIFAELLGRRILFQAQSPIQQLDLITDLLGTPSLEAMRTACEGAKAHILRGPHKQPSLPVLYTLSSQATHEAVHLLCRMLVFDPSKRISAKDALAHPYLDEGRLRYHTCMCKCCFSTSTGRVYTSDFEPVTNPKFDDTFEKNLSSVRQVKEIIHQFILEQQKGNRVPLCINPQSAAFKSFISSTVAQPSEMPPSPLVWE

Block 1
Structure (SMILES): COC[C@H]1OC(=O)c2coc3c2[C@@]1(C)C1=C(C3=O)[C@@H]2CCC(=O)[C@@]2(C)C[C@H]1OC(C)=O
Read-out: enzyme activity
Mode: inhibitor
Tested at: 0.5 µM
Reference: control
target | remaining activity [%]
FER (Homo sapiens, UniProt P16591) | 81.7
STK25 (Homo sapiens, UniProt O00506) | 90.3
NLK (Homo sapiens, UniProt Q9UBE8) | 93.8
TAOK3 (Homo sapiens, UniProt Q9H2K8) | 96.9

Block 2
Cell line: mouse MPNST tumor cells
Method: high-content nuclear imaging
Item: cell number
Tested at: 10 µM
Time: 12 h
Notes: mean of 2 replicates
Reference: plate mean
Direction: higher = more cells
SMILES | nuclei count
O=C(CCCN1CCC2(CC1)C(=O)NCN2c1ccccc1)c1ccc(F)cc1 | 1.44 z-score and 1.99 z-score
C[C@]12CC[C@H](O)C[C@@H]1CC[C@@H]1[C@@H]2CC[C@]2(C)C(=O)CC[C@@H]12 | 0.963 z-score
C[C@@H]1CN(Cc2ccc(F)cc2)CCN1C(=O)COc1ccc(Cl)cc1NC(N)=O | 1.39 z-score
NCCc1ccccn1 | 1.5 z-score

Other studies, line by line
SMILES | target or system | assay | test system | conditions | measurement | result
CC(=O)/C=C/c1ccccc1 | CAMK2A (Homo sapiens, UniProt Q9UQM7) | enzyme activity, inhibitor | – | 10 µM | inhibition | -86%
Cc1cc(C)nc(N=C(N)NCCc2cnc[nH]2)n1 | – | – | mouse, microsomes or S9 | 2 µM, 0.5 h | remaining compound | 74.1%

Repeated from above (other studies, line by line):
SMILES | target or system | assay | test system | conditions | measurement | result
Cc1cc(C)nc(N=C(N)NCCc2cnc[nH]2)n1 | – | – | mouse, microsomes or S9 | 2 µM, 0.5 h | remaining compound | 74.1%
